Published values pooled from the literature.
Protocols differ between the studies behind these lines. ± gives the spread as reported.
Method: steady-state kinetics
B1: nitrilase Y142V (Rhodococcus rhodochrous, UniProt A4LA85); chain MVEYTNTFKVAAVQAQPVWFDAAKTVDKTVSIIAEAARNGCELVAFPEVFIPGYPYHIWVDSPLAGMAKFAVRYHENSLTMDSPHVQRLLDAARDHNIAVVVGISERDGGSLYMTQLIIDADGQLVARRRKLKPTHVERSVVGEGNGSDISVYDMPFARLGALNCWEHFQTLTKYAMYSMHEQVHVASWPGMSLYQPEVPAFGVDAQLTATRMYALEGQTFVVCTTQVVTPEAHEFFCENEEQRKLIGRGGGFARIIGPDGRDLATPLAEDEEGILYADIDLSAITLAKQAADPVGHYSRPDVLSLNFNQRRTTPVNTPLSTIHATHTFVPQFGALDGVRELNGADEQRALPSTHSDETDRATASI
B2: enzyme H189A (Acetivibrio thermocellus, UniProt A3DJ38); chain MKLTIPELSLVVLIGSSGSGKSTFAKKHFKPTEVISSDFCRGLVSDDENDQTVTGAAFDVLHYIVSKRLQLGKLTVVDATNVQESARKPLIEIAKDYHCFPVAVVFNLPEKVCQERNKNRTDRQVEEYVIRKHTQQLKKSIKGLQREGFRYVYILNSPEEVEEVVFERQPLWNNKKDEHGPFDIIGDIAGCYDELKMLLEKLGYLIEEVEGGVGSGKYRVTHPEGRKVLFLGDLVDRGPKITEVLKLVMGMVKSGIALCVPGNHDVKLLRKLNGRDVQITHGLDRTLEQLAKEPQEFIEEVKAFIDGLVSHYVLDDGKLVVAHAGMKEEFQGRGSGKVREFALYGETTGETDEYGLPVRYDWASDYRGKALVVYGHTPQAEVLKVNNTINIDTGCVFGGKLTAYRYPEREIVDVKALKTYYEPAKPFLPKEDMAERFEARTDNDILDINDVLGKKIITTRLMSSITIHEENSIAALEVMSRFAADPHWLIYLPPTMSPCETSKKEGMLEHPIEAFEYFRTRGVGKVVCEQKHMGSRAVVIVCKDSQVAEKRFGVLDGTAGICYTRTGRHFFDDMQLEAELIDRVRKVLDKSGFWGDFNTDWVCLDCELMPWSAKAQKLLEEQYSAVGISGRVVLDEAVKLLKQASLNKTVSFDVSRQTSGKNADINELLQRFTERSEMMQKYVEAYRKYCWPVNSIDDLKLAPFHILATEGKVHSDKNHIWHMDTIAKYCTQDDSLIMATNHILVDVTDAESVDKGIKWWEDLTASGGEGMVVKPYDFIVKNGRELLQPAVKCRGREYLRIIYGPEYTMDENIERLRNRAVGKKRSLALREFSLGMEALERFVRNEPLYRVHECVFGVLALESEPVDPRL
B3: protein F432Y (Streptomyces toyocaensis, UniProt Q8KLK7); chain MTTVLPPLEDTDGLWAALTEAAASVEKLLATLPEHGARSSAERAEIAAAHDAARALRVRFLDTHADAVYDRLTDHRRVHLRLAELVEAAATAFPGLVPTQQQLAVERSLPQAAKEGHEIDQGIFLRAVLRSPLAGPHLLDAMLRPTPRALELLPEFVRTGEVEMEAVHLERRDGVARLTMCRDDRLNAEDGQQVDDMETAVDLALLDPGVRVGLLRGGVMSHPRYRGKRVFSAGINLKYLSQGGISLVDFLMRRELGYIHKLVRGVLTNDDRPGWWHSPRIEKPWVAAVDGFAIGGGAQLLLVFDRVLASSDAYFSLPAAKEGIIPGAANLRLGRFAGPRVSRQVILEGRRIWAKEPEARLLVDEVVEPDELDAAIERSLTRLDGDAVLANRRMLNLADESPDGFRAYMAEFALMQALRLYGHDVIDKVGRYGGRPPA
B4: enzyme N249W (Thermobifida fusca, UniProt Q47RK4); chain MTDVYILDAVRTPFGRYGGALSGIRPDDLAAHVLRALAERSPGLDPAAVDDVFFGDANGAGEDNRNVARMAALLAGWPTSVPGVTLNRLCGSGMESVIAANRAIAVGDASLAVAGGVESMSRAPWVLPKPAQGFPTGHETLYSTTLGWRMVNPAMPEQWTVSLGESTEQVAATYGISRAEQDAFALRSHERAARAWAEGVFDAEITQIPGAELERDESIRETSAEKLAALKPAFRPDGTITAGNASPLWDGAAALLIGDAAAAERVGREPLARIVSRGVAAVDPDVFGIGPVQAAEIALRRAGIGWDDLSVVELNEAFAAQSLACLKLWPDLDPEIVNPNGGAIAIGHPLGASGARIVGTLAHELHRRGGGWGLAAICIGVGQGLAVVLHR
B5: enzyme (Drosophila melanogaster, UniProt P82890); chain MVRKVLMICLGNICRSPIAEVVMVDTLEKANVKDVEVDSAAIGGWHVGNRADPRAISTLQKHGLKCTHIVRQIRKQDFSEFDYIFGMDEDNMSELRRLAPKGSKAELLMLGDFGLEKKNRIIEDPYYERGAEGFETAYQQCVVACAAFMKERLQK
Chain of UniProt P21645 (whole entry, looked up): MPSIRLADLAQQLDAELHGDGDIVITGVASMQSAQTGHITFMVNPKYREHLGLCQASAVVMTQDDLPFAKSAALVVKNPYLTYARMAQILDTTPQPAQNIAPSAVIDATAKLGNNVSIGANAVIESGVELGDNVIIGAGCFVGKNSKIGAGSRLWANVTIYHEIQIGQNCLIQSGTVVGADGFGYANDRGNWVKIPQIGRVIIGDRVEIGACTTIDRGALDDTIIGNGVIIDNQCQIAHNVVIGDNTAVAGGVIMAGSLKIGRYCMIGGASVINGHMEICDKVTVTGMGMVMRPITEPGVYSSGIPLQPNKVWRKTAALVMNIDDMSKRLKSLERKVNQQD

Molecule | substrate | setting | kcat [s⁻¹]
azu N30H/N36H/Q34D (Pseudomonas aeruginosa) | O=NO | pH 6.35 | 0.00567
B1 (nitrilase Y142V) | Cc1cccc(C#N)c1 | pH 7.5, 25 °C | 0.000102 ± 1.67e-06
aacA-aphD (Staphylococcus aureus, UniProt P0A0C1) | NCC[C@H](O)C(=O)N[C@@H]1C[C@H](N)[C@@H](O[C@H]2O[C@H](CN)[C@@H](O)[C@H](O)[C@H]2O)[C@H](O)[C@H]1O[C@H]1O[C@H](CO)[C@@H](O)[C@H](N)[C@H]1O | pH 7.5, 25 °C | 0.58 ± 0.04
B2 (enzyme H189A) | Nc1ncnc2c1ncn2[C@@H]1O[C@H](CO)[C@H]2OP(=O)(O)O[C@H]21 | pH 7.5, 45 °C | 1.45 ± 0.1
B3 (protein F432Y) | CC(C)(COP(=O)(O)OP(=O)(O)OC[C@H]1O[C@@H](n2cnc3c(N)ncnc32)[C@H](O)[C@@H]1OP(=O)(O)O)[C@@H](O)C(=O)NCCC(=O)NCCSC(=O)Cc1cc(O)cc(O)c1 | pH 7.5, 24 °C, with: O2 | 0.125 ± 0.009
B4 (enzyme N249W) | CC(=O)SCCNC(=O)CCNC(=O)[C@H](O)C(C)(C)COP(=O)(O)OP(=O)(O)OC[C@H]1O[C@@H](n2cnc3c(N)ncnc32)[C@H](O)[C@@H]1OP(=O)(O)O | pH 7.4, 37 °C | 0.00517 ± 7.83e-05
B5 (enzyme) | O=[N+]([O-])c1ccc(OP(=O)(O)O)cc1 | pH 6 | 0.997
lpxD (Escherichia coli, UniProt P21645) | CCCCCCCCCCC[C@@H](O)CC(=O)O[C@@H]1[C@@H](N)[C@@H](OP(=O)(O)OP(=O)(O)OC[C@H]2O[C@@H](n3ccc(=O)[nH]c3=O)[C@H](O)[C@@H]2O)O[C@H](CO)[C@H]1O | pH 8, 25 °C | 3
rfbC (Campylobacter jejuni, UniProt Q0P8I4) | Nc1nc2c(ncn2[C@@H]2O[C@H](COP(=O)(O)OP(=O)(O)O[C@H]3O[C@H]([C@H](O)CO)C(=O)[C@H](O)[C@@H]3O)[C@@H](O)[C@H]2O)c(=O)[nH]1 | pH 7.5, 30 °C | 3.5 ± 0.2
protein (Rhodopseudomonas palustris, UniProt Q6N3R9) | CC(=O)Oc1ccccc1 | pH 8.3, NaCl 150 mM, no saturation, with: CaCl2 1 mM | > 38.6

Some of these lines once more:
Molecule | substrate | setting | kcat [s⁻¹]
lpxD (Escherichia coli, UniProt P21645) | CCCCCCCCCCC[C@@H](O)CC(=O)O[C@@H]1[C@@H](N)[C@@H](OP(=O)(O)OP(=O)(O)OC[C@H]2O[C@@H](n3ccc(=O)[nH]c3=O)[C@H](O)[C@@H]2O)O[C@H](CO)[C@H]1O | pH 8, 25 °C | 3
